# Measured values from different studies.
# “And” joins repeats or separate records; there may be more than shown.
SMILES,organism,assay,system,setting,how to read,quantity,value
COc1ncncc1-c1cn([C@@H]2O[C@](F)(COC(=O)C(C)C)[C@@H](OC(=O)C(C)C)[C@H]2OC(=O)C(C)C)cn1,Dengue virus,viral replication,"Huh-7, DENV-2",48 h,,EC50,25.4 µM
COC(=O)[C@H](Cc1ccc(O)cc1)NCc1cc2ccccc2nc1SC,Pseudomonas aeruginosa,,,"16 µg/mL, without pentamidine",relative to: control,growth,94.3%
CNC(C)C1CCC(N)C(OC2C(N)CC(N)C(OC3OCC(C)(O)C(NC)C3O)C2O)O1 (stereo not shown),Salmonella enterica serovar München,broth microdilution,clinical isolate RKI-No 419/14,,,MIC,≤ 0.5 µg/mL
COC(=O)[C@H]1[C@H]2C[C@@H]3c4[nH]c5cc(OC)ccc5c4CCN3C[C@H]2C[C@@H](OC(=O)c2cc(OC)c(OC)c(OC)c2)[C@@H]1OC,Escherichia coli,checkerboard,tetracycline-resistant,"128 µM, with: tetracycline",,FIC index,1
COC(=O)[C@H](Cc1c[nH]c2ccccc12)NCc1cc2ccccc2nc1OC,Pseudomonas aeruginosa,,,"64 µg/mL, with: pentamidine 50 µM",relative to: control,growth,75.5%
CC(C)C(=O)OC[C@@]1(F)O[C@@H](n2cnc(-c3c[nH]c(=O)[nH]c3=O)c2)[C@H](OC(=O)C(C)C)[C@@H]1OC(=O)C(C)C,Dengue virus,viral replication,"Huh-7, DENV-4",48 h,,EC50,> 100 µM
C[C@@H](CO)CCC[C@@H](C)[C@H]1CC[C@H]2[C@@H]3CC=C4C[C@@H](O)CC[C@]4(C)[C@H]3CC[C@]12C,human rotavirus,viral replication,"MA104, DS-1",,,EC90,5.85 µM
Cc1c(CN(C)C(=O)/C=C/c2cnc3c(c2)CC(NC(=O)OC(C)(C)C)C(=O)N3)oc2ccccc12 (stereo not shown),Klebsiella pneumoniae,broth microdilution,AR-0098,,,MIC,> 32 µg/mL
COc1ncc(-c2cn([C@@H]3O[C@](F)(CO)[C@@H](O)[C@H]3O)cn2)c(OC)n1,Dengue virus,viral replication,"Huh-7, DENV-4",48 h,,EC50,> 100 µM
C[C@@H](O)[C@H]1C(=O)N2C(C(=O)O)=C(SCCN=CN)C[C@H]12,Escherichia coli,,"ATCC 25922, female ICR mice, kidney infection, kidney",dose not given,,bacterial load,5.83 log CFU/g and 4.6 log CFU/g and 5.64 log CFU/g and 5.15 log CFU/g and 5.84 log CFU/g and 5.56 log CFU/g
